Published values collected from several papers.
Compare with care: the assays were run in different laboratories. “And” joins repeats or separate records; there may be more than shown. ± marks the error that the study gave. Converted amounts (≈) assume the structure as drawn.

Nc1ncc(-c2cc(-c3cnn(CC(F)(F)F)c3)ncc2F)nc1C(=O)NC1CNCC(F)C1 (centres unmarked) — remaining binding (FLT3 ITD F691L; KINOMEscan; 1 µM): 45%
C[Si](C)(C)C[C@@H](CN)CC(=O)O — inhibition (sodium channel site 2, rat; binding; 75 µM): -19%
CC1CCC2C(C)C(CCCOC(=O)C(Cc3ccc(N(CCCl)CCCl)cc3)NC(=O)OC(C)(C)C)OC3OC4(C)CCC1C32OO4 (centres unmarked) — IC50 (PC-3 (p53 null); cell growth, CCK-8; 48 h): > 50 µM
COc1ccccc1-c1n[nH]c2nc(N[C@H]3CC[C@H](NS(=O)(=O)CC(C)C)CC3)ncc12 — relative abundance (bead binding, competition bead pull-down, item: LINJ.34.3810; Leishmania donovani extract; 10 µM; reference: vehicle): 2.59
CC(C)[C@@H]1NC(=O)[C@@H]2CCCN2C(=O)[C@@H](C(C)C)NC(=O)[C@H]2CCCN2C(=O)[C@H](C(C)C)NC(=O)[C@@H]2CCCN2C(=O)[C@@H](C(C)C)NC(=O)[C@H]2CCCN2C(=O)[C@H](C(C)C)NC(=O)[C@@H]2CCCN2C(=O)[C@@H](C(C)C)NC(=O)[C@H]2CCCN2C1=O — transference number (sheep lipid bilayer; 10 µM, pH 7.4, 23 °C, with: NH4 cation): 0.94
CC1(C)CC(=O)C2=C(C1)Oc1ccccc1C2C1C(=O)NC(=O)NC1=O (centres unmarked) — mean lipid content (3T3-L1 preadipocytes; adipogenesis, Oil Red O staining; IC20, 14 days): 0.823 OD492
CC(C)CC(C(=O)N1CC2(CC1C#N)C(=O)Nc1ccccc12)N(C)C(=O)c1cc2c(F)cc(F)c(F)c2[nH]1 (centres unmarked) — inhibition (Human coronavirus NL63; viral replication; LLC-MK2; 12.5 nM): 97.4%
COc1cc(C(SC(C)C)SC(C)C)ccc1OCCNS(=O)(=O)c1ccccc1C(F)(F)F — EC50 (Tobacco mosaic virus; inactivation activity; plant in vivo): 856.2 ± 4.5 µg/mL (≈ 1590 µM)
CC(C)(C)C(=O)OCOP(=O)(OCOC(=O)C(C)(C)C)C1CCCN(O)C1=O (centres unmarked) — TGI (T47D): 17.7 µM
CCCCCCCCCCCC(=O)C(C)C(=O)N1CCC[C@H]1C(=O)NC(C)(C)C(=O)NC(C)(C)C(=O)NC(C)(C)C(=O)N[C@](C)(CC)C(=O)NCCC(=O)N[C@@H](C)C(=O)N[C@](C)(CC)C(=O)N[C@@H](C)C(=O)N[C@@H](CC(C)C)C(=O)N[C@](C)(CC)C(=O)NCCC(=O)N[C@@H](C)C(=O)N[C@](C)(CC)C(=O)NCCC(=O)N[C@@H](C)C(=O)NC(C)(C)C(=O)NC(C)(C)C(=O)NC(C)(C)C(=O)N[C@@H](C)C(=O)N[C@@H](CC(=O)O)C(=O)O (some centres unmarked) — unbound compound (MS peak area) (chitin; pull-down, LC-MS; 1 h, pH 7.0, 30 °C, with: chitin 1 mg/mL; higher = less bound): 1590 a.u.
CNCCO.O=C(O)C(Cl)Cl — herbicidal inhibition (Eclipta prostrata; 15 mg/mL, 21 days, post-emergence, greenhouse): 0%
Cc1cc(C(=O)Nc2nc3cccc(C)c3n2[C@H]2CCCCN(C(=O)/C=C/CN(C)C)C2)ccn1 — cell growth (Trypanosoma brucei brucei; CLK1 C215S mutant expressing; 10 x EC50, 48 h): 10900% and 9380% and 6810%
CCCSC(SCCC)c1ccc(OCCNS(=O)(=O)c2cccc(Br)c2)c(OC)c1 — EC50 (Tobacco mosaic virus; protective activity; plant in vivo): 305.8 ± 2 µg/mL (≈ 557 µM)
Cc1cc(Oc2nc(N3CC[C@@H](c4ccncc4)C3)ncc2F)[nH]n1 — IC50 (OVCAR-3; cell proliferation): 45.7 µM
O=C1NC2(CC2)COc2ncc(F)cc2[C@H]2COCCN2c2ccn3ncc1c3n2 — organ-to-body weight ratio (Sprague-Dawley rat, male, brain; oral, 5 mg/kg/day, 4 weeks dosing, end of recovery): 0.428 ± 0.028%
CCN(CC)Cc1cc(Nc2c(C)cnc3cc(Cl)ccc23)ccc1O.Cl — inhibition (Dengue virus type 2; viral replication, Rluc reporter replicon; BHK-21 DENV2 replicon cells; 50 µM, 24 h): 89.9 ± 10.6%
CN(C(=O)c1ccn2ncc(-c3ccc(C(N)=O)cc3)c2c1)c1ccc(C#N)cn1 — faecal Nluc luminescence (Cryptosporidium parvum; UGA1 Nluc, IFN-gamma knockout C57BL/6 mice, faeces; oral, 10 mg/kg daily, 336 h post infection, treatment days 11-17; higher means more parasites): 2340 a.u. and 98 a.u. and 3200 a.u. and 8390 a.u.
COc1ccccc1-c1n[nH]c2nc(NC3CCN(C(=O)Cc4ccc(F)cc4F)CC3)ncc12 — relative abundance (bead binding, competition bead pull-down, item: LINJ.29.1250; Leishmania donovani extract; 10 µM; reference: vehicle): 1.02
CCCSC(SCCC)c1ccc(OCCNS(=O)(=O)c2ccccc2C(F)(F)F)c(OC)c1 — EC50 (Tobacco mosaic virus; protective activity; plant in vivo): 271.3 ± 1.3 µg/mL (≈ 505 µM)
O=C(O)c1ccc(-c2nc(-c3ccccc3Cl)c3sccn23)cc1 — platelet count change (C57BL/6 mice; dose not given, days 3 and 4 pooled, basal hematopoiesis): 174% and 106% and 93.9% and 160% and 105% and 90.7% and 132%

Excerpt of the above:
CCCSC(SCCC)c1ccc(OCCNS(=O)(=O)c2cccc(Br)c2)c(OC)c1 — EC50 (Tobacco mosaic virus; protective activity; plant in vivo): 305.8 ± 2 µg/mL (≈ 557 µM)
